Results pooled from the literature.
Each line is one published result; not all experiments were run side by side.

SMILES | assay | system | conditions | measurement | value
Cc1ccc(C(C)C)cc1.O=C(N=P(c1ccccc1)(c1ccccc1)c1ccccc1)c1ccccn1.[Cl-].[Cl-].[Ru+2] | measured: ruthenium | NOD scid mouse, plasma | intraperitoneal, 5 mg/kg | elimination rate constant | 0.055 h⁻¹
COC1C=COC2(C)Oc3c(C)c(O)c4c(c3C2=O)C2=NC3(CCN(CC(C)C)CC3)NC2=C(NC(=O)C(C)=CC=CC(C)C(O)C(C)C(O)C(C)C(OC(=O)Nc2cccnn2)C1C)C4=O (stereo not shown) |  | CD-1 mouse female, plasma |  | elimination half-life | 2.5 h
O=C([O-])CN1CCN(CC(=O)[O-])CCN(CC(=O)NC[C@H]2CC[C@H](C(=O)N[C@H](Cc3cnc4ccccc4c3)C(=O)NCCCC[C@H](NC(=O)N[C@@H](CCC(=O)O)C(=O)O)C(=O)O)CC2)CCN(CC(=O)[O-])CC1.[64Cu+2] |  | ICR mouse, male, blood | intravenous, 0.74 MBq | elimination half-life | 1.38 h
CC(C)N(P(c1ccccc1)c1ccccc1)P(c1ccccc1)c1ccccc1.Cc1ccc(C(C)C)cc1.F[B-](F)(F)F.[Cl][Ru+] | ICP-MS, measured: ruthenium | BALB/c nude mouse, serum | intraperitoneal, 5 mg/kg | elimination rate constant | 0.055 h⁻¹
CC1(C)C(=CC=C2C[N+](C)(C)CC(C=CC3=[N+](CCCCCC(=O)O)c4ccccc4C3(C)C)=C2Cl)N(CCCCCC(=O)O)c2ccccc21 | fluorescence | CD-1 mouse, healthy, plasma | intravenous, 25 nmol | elimination half-life | 1.67 h
O=C(OCc1cccc(O)c1O)c1ccc(O)c(CO)c1 |  | mouse CD1, male, plasma | intravenous bolus, 10 mg/kg, 0 to 30 min | elimination rate constant | 16.5 h⁻¹
CC1(C)C(/C=C/C2=C(Oc3ccc(CCC(=O)NCCC(O)(P(=O)([O-])[O-])P(=O)([O-])O)cc3)C(=C/C=C3/N(CCC[N+](C)(C)C)c4ccccc4C3(C)C)/CCC2)=[N+](CCC[N+](C)(C)C)c2ccccc21 (stereo not shown) |  | mouse, male, whole blood | intravenous, 10 nmol, over 4 h | elimination half-life | 1.13 h
COC1C=COC2(C)Oc3c(C)c(O)c4c(c3C2=O)C2=NC3(CCN(CC(C)C)CC3)NC2=C(NC(=O)C(C)=CC=CC(C)C(O)C(C)C(O)C(C)C(OC(=O)Nc2cnccn2)C1C)C4=O (stereo not shown) |  | CD-1 mouse female, plasma |  | elimination half-life | 4 h
N=C(N)NCCC[C@@H]1NC(=O)[C@H](Cc2c[nH]c3ccccc23)NC(=O)[C@@H](CC2CCCCC2)NC(=O)[C@@H]2CCCN2C(=O)[C@@H](NC(=O)CCc2ccccc2)CCCNC1=O | two-compartment model | C57BL/6J mouse, plasma | 1 mg/kg single dose | elimination half-life | ~0.333 h
O=C(CCCCC[N+]#[C][99Tc-5]([C]#[N+]CCCCCC(=O)N[C@H]1C(O)O[C@H](CO)[C@@H](O)[C@@H]1O)([C]#[N+]CCCCCC(=O)N[C@H]1C(O)O[C@H](CO)[C@@H](O)[C@@H]1O)([C]#[N+]CCCCCC(=O)N[C@H]1C(O)O[C@H](CO)[C@@H](O)[C@@H]1O)([C]#[N+]CCCCCC(=O)N[C@H]1C(O)O[C@H](CO)[C@@H](O)[C@@H]1O)[C]#[N+]CCCCCC(=O)N[C@H]1C(O)O[C@H](CO)[C@@H](O)[C@@H]1O)N[C@H]1C(O)O[C@H](CO)[C@@H](O)[C@@H]1O (stereo partly shown) |  | CD-1 mouse, healthy, blood |  | elimination half-life | 0.353 h
CC1(C)C(/C=C/C2=C(Oc3ccc(CCC(=O)NCCC(O)(P(=O)([O-])O)P(=O)(O)O)cc3)C(=C/C=C3/N(CCC[N+](C)(C)C)c4ccc(S(=O)(=O)[O-])cc4C3(C)C)/CCC2)=[N+](CCC[N+](C)(C)C)c2ccc(S(=O)(=O)[O-])cc21 (stereo not shown) |  | mouse, male, whole blood | intravenous, 10 nmol, over 4 h | elimination half-life | 0.667 h
COCCOCCOCCOCCOCCOCCOCCNC(=O)CCC1(CCC(=O)NCCOCCOCCOCCOCCOCCOCCOC)c2ccccc2-c2ccc(-c3sc(-c4c5c(c(-c6sc(-c7ccc8c(c7)C(CCC(=O)NCCOCCOCCOCCOCCOCCOCCOC)(CCC(=O)NCCOCCOCCOCCOCCOCCOCCOC)c7ccccc7-8)c7c6OCCO7)c6nsnc46)N=S=N5)c4c3OCCO4)cc21 | NIR-II fluorescence of blood | KM mouse, female, whole blood | intravenous, 15 mg/kg, liver elimination, negligible renal excretion | elimination rate constant | ~0.74 h⁻¹
Cc1cc(O)cc(O)c1C(=O)c1c2c3c(c(O)cc(C)c3oc1=O)C(=O)c1c(O)cc(O)cc1-2 |  | KM mouse, male, plasma | intraperitoneal, 15 mg/kg | elimination rate constant | 0.96 h⁻¹

Repeated from above:
SMILES | assay | system | conditions | measurement | value
Cc1cc(O)cc(O)c1C(=O)c1c2c3c(c(O)cc(C)c3oc1=O)C(=O)c1c(O)cc(O)cc1-2 |  | KM mouse, male, plasma | intraperitoneal, 15 mg/kg | elimination rate constant | 0.96 h⁻¹
